Experimental data from different studies.
Every numbered part comes from another study and shows a few of its results, in no order. Numbers after ± are the reported error.

Block 1
Target: HLA class I histocompatibility antigen, A alpha chain, allele A*68:02 (Homo sapiens, UniProt P04439)
Effect on: binding
Mode: competitor
The IC50 of `CC(C)[C@H](NC(=O)[C@@H](NC(=O)[C@@H](NC(=O)[C@@H](NC(=O)[C@@H](NC(=O)CNC(=O)[C@H](CO)NC(=O)[C@@H](N)Cc1ccc(O)cc1)C(C)C)C(C)C)[C@@H](C)O)[C@@H](C)O)C(=O)O` is reported as 1240 nM.
`CC(C)C[C@H](NC(=O)[C@@H](NC(=O)[C@H](CCC(=O)O)NC(=O)[C@H](CC(N)=O)NC(=O)[C@H](CC(C)C)NC(=O)[C@H](CC(=O)O)NC(=O)[C@H](CC(N)=O)NC(=O)[C@H](CC(C)C)NC(=O)[C@@H](N)[C@@H](C)O)[C@@H](C)O)C(=O)O` gave an IC50 of 9480 nM.
`CC[C@H](C)[C@H](NC(=O)[C@@H](NC(=O)[C@@H](N)CCCNC(=N)N)[C@@H](C)O)C(=O)N[C@@H](CCCCN)C(=O)N[C@H](C(=O)N[C@@H](Cc1ccccc1)C(=O)N[C@H](C(=O)N[C@H](C(=O)N[C@H](C(=O)O)C(C)C)[C@@H](C)O)[C@@H](C)O)C(C)C` gave an IC50 of 353 nM.

Other studies, line by line
B1: protein 16-102 K79A/R82A/R83A (Mycobacterium tuberculosis, UniProt P96276); chain EVADGLTRREHDILAFERQWWKFAGVKEEAIKELFSMSATRYYQVLNALVDRPEALAADPMLVARLAALRASRQKARAARRLGFEVT
For `CC(C)=CCNc1ncnc2c1ncn2[C@@H]1O[C@H](CO)[C@@H](O)[C@H]1O`, the EC90 was 1590 ± 61 nM (SARS-CoV-2; Vero C1008, Omicron BA.5; 48 h).
For `MLEPFQILSISSFILSALHFMAWTIGALNQIKR (BM2 transmembrane domain H27A (Influenza B virus))`, the pKa was 5.2 (solid-state NMR, measured: His19; peptide, VM+ membrane pellets; membrane-bound tetramer, no drug, second protonation).
`3CLpro G11S (SARS-CoV-2)` — result for “maximum reaction velocity”: 0.04 µM/s (itself; FRET peptide cleavage; 400 nM).
Under binding, `B1 (protein 16-102 K79A/R82A/R83A)` is recorded as “binds” (itself; cross-linking).
